Results pooled from the literature.
Numbered parts are unrelated; each lists some results of a single study. Positions count from the first letter of the parent shown.

Series 1 — target: CCNB2, cyclin fold, Cln2 fusion (human); technique: yeast growth competition, sequencing; matrix: yeast; notes: weak parent motif; reference: not given; direction: higher = stronger binding
Starting sequence: CDAN1 docking peptide (human); RGARSQLFPPTEA
Substitution | normalised enrichment score
F8A | 0.801
S5A | 0.488
T11A | 0.0173
R4A | -0.082
L7A | 0.391

Series 2 — technique: protein-binding microarray; form: double-stranded DNA, one strand shown; matrix: in vitro; tested at: not given; direction: higher = stronger binding
Target: Max dimerization protein 1, bHLH-zipper, MAX partner unstated (MXD1, Homo sapiens, UniProt Q05195, residues 56-136)
Notes: k-mer, scored over probes, only values ≥0.25
Construct (chain): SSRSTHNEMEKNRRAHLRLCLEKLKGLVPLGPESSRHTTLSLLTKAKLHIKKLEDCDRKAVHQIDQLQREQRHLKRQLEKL
Oligonucleotide | E-score
CATGTGAA | 0.369
ACGTTGAT | 0.28
ACCCACGA | 0.332
CATGGCGG | 0.335
ACACGAGT | 0.424
CACACGCG | 0.442
AAAACACG | 0.306
CGTGCGCA | 0.354
CCCCTTGC | 0.261
CTCATGCA | 0.274
ATGACACG | 0.283

Series 3 — technique: protein-binding microarray; form: double-stranded DNA, one strand shown; matrix: in vitro; tested at: 940 nM top; notes: 60-bp whole probe; together with: salmon DNA 0.4 mg/ml; reference: random background probes; direction: higher = stronger binding; all sequences stand within: GCCTAGCAC … GTCTTGATTCGCTTGACGCTGCTG
Target: Interferon regulatory factor 5, full length, phosphomimetic (IRF5, Homo sapiens, UniProt Q13568-2, residues 1-514, S451D/S453D/S456D/S462D)
Oligonucleotide | fitted relative affinity [z-score]
GTATATACACTTATGACTTTGTGCTAG | 0.613
TTAGATCTCGGGTATCGATTAGTGCTA | 3.2
GACGGAATCCTTCTCCTGACGTGCTAG | -0.345
GGTGGTGATGGTGAGTAAGAGTGCTAG | -0.221
CTCTGCTTGCGTCTGGGTGTGTGCTAG | -0.588
TAAGGTATCCTTCTCCTTTAGTGCTAG | 0.271
GACGGACTGGAGTTTCGGGACGTGCTA | 1.84
ATCCATTTTGGTTTTCATTAGTGCTAG | 1.3
TCACTTTCCCCTTCCTAACTGTGCTAG | 2.2
TTAGGACTGGGGTGTCGGTTAGTGCTA | -0.0415
TCAGGTTTCGGGTATCGGTTAGTGCTA | 10.3
TCATTTTCGTTTTTATTATTGTGCTAG | 4.19

Further values, each from its own experiment
Molecule | target | assay | test system | setting | how to read | measurement | result
PhoQ, residues 284 288 289 292 302 303 SSTLLI | PhoP, residues 12 14 15 18 19 SEGLL (Escherichia coli, UniProt P23836) | Sort-seq, refers to: YFP reporter | E. coli | PhoQ-PhoP variant library, together with: 10 µM Mg2+ | reference: high Mg2+ state, higher = stronger signaling | fold induction | 8.03

Some of these lines once more (series 2):
Oligonucleotide | E-score
CACACGCG | 0.442
AAAACACG | 0.306
CGTGCGCA | 0.354
CCCCTTGC | 0.261
